Results from different studies.
Each line is one published result; not all experiments were run side by side. ± gives the spread as reported.
GIPR: Gastric inhibitory polypeptide receptor (GIPR, Homo sapiens, UniProt P48546)
Sequence of UniProt P48546 (whole entry, looked up): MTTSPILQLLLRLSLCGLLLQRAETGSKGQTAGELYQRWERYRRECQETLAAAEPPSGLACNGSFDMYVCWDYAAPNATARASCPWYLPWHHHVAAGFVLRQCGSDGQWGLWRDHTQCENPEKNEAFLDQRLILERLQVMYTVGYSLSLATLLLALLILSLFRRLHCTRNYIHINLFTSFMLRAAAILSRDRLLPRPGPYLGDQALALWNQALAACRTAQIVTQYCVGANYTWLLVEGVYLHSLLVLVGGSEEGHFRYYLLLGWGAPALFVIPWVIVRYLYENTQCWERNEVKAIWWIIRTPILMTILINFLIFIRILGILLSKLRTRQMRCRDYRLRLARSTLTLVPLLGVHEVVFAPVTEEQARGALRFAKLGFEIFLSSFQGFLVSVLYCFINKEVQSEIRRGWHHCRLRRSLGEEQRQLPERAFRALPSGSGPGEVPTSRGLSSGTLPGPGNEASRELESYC
Sequence of UniProt P70180 (whole entry, looked up): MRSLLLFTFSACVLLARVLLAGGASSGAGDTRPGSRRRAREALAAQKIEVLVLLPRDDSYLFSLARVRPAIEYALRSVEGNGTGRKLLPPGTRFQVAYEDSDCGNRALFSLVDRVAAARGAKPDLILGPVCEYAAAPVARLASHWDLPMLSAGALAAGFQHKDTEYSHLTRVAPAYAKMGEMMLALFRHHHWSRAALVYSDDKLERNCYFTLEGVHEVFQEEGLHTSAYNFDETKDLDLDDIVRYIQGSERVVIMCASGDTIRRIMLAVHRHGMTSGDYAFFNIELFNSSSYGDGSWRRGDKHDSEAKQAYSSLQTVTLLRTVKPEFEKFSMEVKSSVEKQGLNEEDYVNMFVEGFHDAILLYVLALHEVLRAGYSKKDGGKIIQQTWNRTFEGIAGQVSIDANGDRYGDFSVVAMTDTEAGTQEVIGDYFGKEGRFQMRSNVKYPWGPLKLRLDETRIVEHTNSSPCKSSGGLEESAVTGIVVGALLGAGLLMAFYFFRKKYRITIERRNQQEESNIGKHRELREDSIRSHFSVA
Sequence of UniProt P42338 (whole entry, looked up): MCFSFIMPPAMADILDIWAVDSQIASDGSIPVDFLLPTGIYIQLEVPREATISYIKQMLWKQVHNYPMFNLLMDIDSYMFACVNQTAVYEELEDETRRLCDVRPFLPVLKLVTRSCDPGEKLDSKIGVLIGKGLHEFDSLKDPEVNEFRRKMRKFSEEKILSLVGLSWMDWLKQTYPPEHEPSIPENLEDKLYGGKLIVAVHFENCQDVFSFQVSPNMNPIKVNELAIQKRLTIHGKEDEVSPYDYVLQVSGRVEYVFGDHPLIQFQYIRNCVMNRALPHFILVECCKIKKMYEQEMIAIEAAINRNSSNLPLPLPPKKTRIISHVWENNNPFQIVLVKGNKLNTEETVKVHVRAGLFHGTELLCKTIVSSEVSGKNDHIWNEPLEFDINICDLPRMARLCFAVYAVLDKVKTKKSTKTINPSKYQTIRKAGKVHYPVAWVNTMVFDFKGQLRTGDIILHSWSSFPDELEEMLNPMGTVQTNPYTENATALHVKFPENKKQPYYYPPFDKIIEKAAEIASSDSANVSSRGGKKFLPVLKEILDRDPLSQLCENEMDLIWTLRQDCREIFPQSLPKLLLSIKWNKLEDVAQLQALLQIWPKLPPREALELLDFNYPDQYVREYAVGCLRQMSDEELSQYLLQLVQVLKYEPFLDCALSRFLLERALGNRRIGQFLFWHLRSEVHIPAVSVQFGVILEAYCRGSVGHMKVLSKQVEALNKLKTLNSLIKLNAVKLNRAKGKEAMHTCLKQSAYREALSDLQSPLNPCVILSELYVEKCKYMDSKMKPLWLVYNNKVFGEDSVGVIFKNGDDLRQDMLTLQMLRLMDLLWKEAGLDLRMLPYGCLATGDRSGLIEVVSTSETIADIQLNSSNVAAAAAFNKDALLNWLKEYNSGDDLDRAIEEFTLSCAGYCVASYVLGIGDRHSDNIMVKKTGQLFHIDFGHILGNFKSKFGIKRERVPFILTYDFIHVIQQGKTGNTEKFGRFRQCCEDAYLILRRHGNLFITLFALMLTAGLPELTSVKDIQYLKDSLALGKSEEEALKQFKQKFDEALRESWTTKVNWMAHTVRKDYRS
Sequence of UniProt P15151 (whole entry, looked up): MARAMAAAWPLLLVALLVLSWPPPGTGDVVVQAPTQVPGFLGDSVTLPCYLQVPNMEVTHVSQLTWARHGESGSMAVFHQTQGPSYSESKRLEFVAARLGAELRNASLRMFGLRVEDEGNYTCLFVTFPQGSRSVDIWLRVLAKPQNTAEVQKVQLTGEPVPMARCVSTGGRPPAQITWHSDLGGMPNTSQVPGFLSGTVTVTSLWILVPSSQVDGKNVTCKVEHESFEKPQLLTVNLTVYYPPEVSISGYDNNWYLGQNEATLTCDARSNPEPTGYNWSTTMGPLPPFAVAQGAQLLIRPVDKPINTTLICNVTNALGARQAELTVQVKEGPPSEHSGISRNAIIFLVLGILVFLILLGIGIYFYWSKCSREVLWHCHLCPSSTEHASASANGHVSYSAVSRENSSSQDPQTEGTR
Sequence of UniProt P34975 (whole entry, looked up): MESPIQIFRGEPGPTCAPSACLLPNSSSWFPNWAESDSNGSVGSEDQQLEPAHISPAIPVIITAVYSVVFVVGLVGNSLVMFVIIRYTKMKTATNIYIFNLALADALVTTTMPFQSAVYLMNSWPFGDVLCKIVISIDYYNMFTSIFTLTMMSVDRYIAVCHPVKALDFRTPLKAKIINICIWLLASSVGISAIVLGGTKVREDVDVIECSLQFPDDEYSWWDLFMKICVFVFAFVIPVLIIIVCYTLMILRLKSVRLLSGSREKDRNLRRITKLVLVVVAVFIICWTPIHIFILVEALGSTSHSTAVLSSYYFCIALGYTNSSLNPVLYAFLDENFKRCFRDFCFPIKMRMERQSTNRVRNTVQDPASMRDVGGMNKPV
Sequence of UniProt P34972 (whole entry, looked up): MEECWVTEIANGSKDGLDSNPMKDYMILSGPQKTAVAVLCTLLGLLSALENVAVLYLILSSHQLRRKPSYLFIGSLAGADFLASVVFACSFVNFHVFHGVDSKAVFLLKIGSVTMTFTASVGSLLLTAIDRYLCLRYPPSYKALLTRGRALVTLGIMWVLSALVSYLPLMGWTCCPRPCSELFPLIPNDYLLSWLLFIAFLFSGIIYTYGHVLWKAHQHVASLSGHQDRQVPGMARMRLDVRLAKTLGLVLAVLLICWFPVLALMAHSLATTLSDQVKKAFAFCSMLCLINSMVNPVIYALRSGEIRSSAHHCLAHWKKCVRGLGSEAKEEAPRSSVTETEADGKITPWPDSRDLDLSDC
Sequence of UniProt P33535 (whole entry, looked up): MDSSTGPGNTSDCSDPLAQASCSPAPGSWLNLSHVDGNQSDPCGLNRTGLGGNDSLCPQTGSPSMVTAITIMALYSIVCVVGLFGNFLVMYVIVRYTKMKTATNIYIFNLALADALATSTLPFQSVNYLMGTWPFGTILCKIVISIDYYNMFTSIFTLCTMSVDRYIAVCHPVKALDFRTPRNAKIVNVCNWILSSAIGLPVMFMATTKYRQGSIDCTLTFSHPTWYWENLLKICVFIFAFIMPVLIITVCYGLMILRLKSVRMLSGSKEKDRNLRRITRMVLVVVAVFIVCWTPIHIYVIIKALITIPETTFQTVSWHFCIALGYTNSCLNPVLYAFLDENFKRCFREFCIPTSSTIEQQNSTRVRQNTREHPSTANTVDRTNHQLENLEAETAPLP
Sequence of UniProt P33533 (whole entry, looked up): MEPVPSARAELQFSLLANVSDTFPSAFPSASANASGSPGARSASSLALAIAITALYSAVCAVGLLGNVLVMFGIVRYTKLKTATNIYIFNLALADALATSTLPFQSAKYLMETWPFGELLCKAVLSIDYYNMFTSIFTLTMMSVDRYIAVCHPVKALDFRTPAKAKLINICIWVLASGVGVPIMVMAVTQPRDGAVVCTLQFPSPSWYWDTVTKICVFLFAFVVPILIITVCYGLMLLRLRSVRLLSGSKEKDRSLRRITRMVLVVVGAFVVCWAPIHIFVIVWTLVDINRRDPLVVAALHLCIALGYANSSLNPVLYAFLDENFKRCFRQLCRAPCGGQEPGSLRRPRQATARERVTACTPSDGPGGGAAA
Sequence of UniProt P35372 (whole entry, looked up): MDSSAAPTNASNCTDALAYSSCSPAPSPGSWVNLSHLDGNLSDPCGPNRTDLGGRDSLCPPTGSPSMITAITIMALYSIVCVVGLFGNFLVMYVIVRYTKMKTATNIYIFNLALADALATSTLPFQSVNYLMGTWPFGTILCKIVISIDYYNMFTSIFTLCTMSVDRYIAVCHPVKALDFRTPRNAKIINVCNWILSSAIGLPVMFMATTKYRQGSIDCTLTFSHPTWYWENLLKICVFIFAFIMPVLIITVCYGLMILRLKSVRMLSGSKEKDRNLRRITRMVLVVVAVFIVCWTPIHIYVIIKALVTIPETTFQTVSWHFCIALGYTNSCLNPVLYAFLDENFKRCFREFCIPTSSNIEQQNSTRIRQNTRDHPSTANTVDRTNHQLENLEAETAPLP

The selectivity ratio of `C[C@H](Nc1ncnc(N)c1C#N)c1c(-c2ccccc2)[nH]c2c(Cl)cccc2c1=O` is reported as 125 (PIK3CB (Homo sapiens, UniProt P42338); enzyme activity; reference: IC50 PIK3CB over PI3Kδ).
`CC(C)C[C@@H]1NC(=O)[C@@H](NC(=O)[C@H](CC(=O)O)NC(=O)[C@H](C)N)CSSC[C@@H]2NC(=O)[C@@H]3CSSC[C@@H](C(=O)N[C@@H](CCCNC(=N)N)C(=O)O)NC(=O)[C@H](CCCNC(=N)N)NC(=O)[C@H](CCC(N)=O)NC(=O)[C@H](CCC(=O)O)NC(=O)[C@@H]4CCCN4C(=O)[C@H](CC(N)=O)NC(=O)[C@H]([C@@H](C)O)NC(=O)CNC(=O)[C@H](CCCNC(=N)N)NC(=O)[C@H](CCCNC(=N)N)NC(=O)[C@H](CO)NC(=O)[C@H](CSSC[C@H](NC(=O)[C@H](CC(C)C)NC(=O)[C@H](CCCCN)NC(=O)[C@H](CC(C)C)NC(=O)[C@H](Cc4c[nH]cn4)NC(=O)[C@H](C)NC1=O)C(=O)N[C@@H](CCCCN)C(=O)N[C@@H](CCCCN)C(=O)N[C@@H](CC(N)=O)C(=O)N[C@@H](CCCCN)C(=O)N[C@@H](CC(=O)O)C(=O)N3)NC(=O)[C@H](CCCCN)NC(=O)[C@H](CCCCN)NC(=O)[C@H](CO)NC2=O`: “specific [3H]ryanodine binding” 296 ± 14.6% (RYR1 (Oryctolagus cuniculus, UniProt P11716); activator; 100 nM, pCa 6; reference: control at pCa 5).
For `CC(C)C[C@H](NC(=O)[C@H](CCCCN)NC(=O)[C@H](CCCNC(=N)N)NC(=O)[C@H](C)NC(=O)[C@H](CO)NC(=O)[C@H](CCCCN)NC(=O)[C@H](CCCNC(=N)N)NC(=O)[C@H](C)NC(=O)CNC(=O)[C@@H](NC(=O)[C@H](Cc1ccccc1)NC(=O)CNC(=O)CNC(=O)[C@@H](N)Cc1ccccc1)[C@@H](C)O)C(=O)N[C@@H](C)C(=O)N[C@@H](CC(N)=O)C(=O)N[C@@H](CCC(N)=O)C(=O)O`, pEC50 read “inactive” (OPRM1 (Homo sapiens, UniProt P35372); β-arrestin 2 recruitment, agonist, BRET; SH-SY5Y; 15 min, room temperature, inactive up to 1 µM).
Under “time to peak hyperpolarisation”, `CC[C@H](C)[C@H](NC(=O)[C@H](CCCNC(=N)N)NC(=O)[C@H](CCCNC(=N)N)NC(=O)[C@H](CC(C)C)NC(=O)[C@H](Cc1ccccc1)NC(=O)CNC(=O)CNC(=O)[C@@H](N)Cc1ccc(O)cc1)C(=O)N[C@@H](CCCNC(=N)N)C(=O)N1CCC[C@H]1C(=O)N[C@@H](CCCCN)C(=O)N[C@@H](CC(C)C)C(=O)N[C@@H](CCCCN)C(N)=O` is recorded as ~30 s (Oprk1 (Rattus norvegicus, UniProt P34975); agonist; concentration not given).
The koff of `C[C@H](NC(=O)CNC(=O)[C@@H]1CCCN1C(=O)[C@H](CO)NC(=O)CNC(=O)[C@H](CO)NC(=O)[C@H](C)NC(=O)[C@H](CC(N)=O)NC(=O)[C@H](C)NC(=O)[C@H](CO)NC(=O)[C@H](C)NC(=O)[C@H](CO)NC(=O)[C@@H]1CCCN1C(=O)[C@H](Cc1ccccc1)NC(=O)[C@H](C)NC(=O)[C@H](CO)NC(=O)[C@@H]1CCCN1C(=O)[C@H](Cc1ccccc1)NC(=O)[C@@H](NC(=O)[C@H](CC(=O)O)NC(=O)[C@@H](N)CO)[C@@H](C)O)C(=O)N[C@@H](CCCNC(=N)N)C(=O)N[C@@H](CO)C(=O)O` is reported as 8.06 ± 0.72 s⁻¹ (Oprd1/Oprm1 (Rattus norvegicus, UniProt P33533+P33535)).
Under “cysteine reactivity ratio”, `C#CCCCCOc1ccc2c(c1)CCCN2C(=O)CCl` is recorded as 1.23 (Poliovirus receptor (PVR, Homo sapiens, UniProt P15151); MS-ABPP alkyne probe; H460 cell lysate; reference: high over low probe).
`CC[C@H](C)[C@@H]1NC(=O)[C@H]([C@@H](C)O)NC(=O)[C@H](CCC(=O)O)NC(=O)[C@H](CO)NC(=O)[C@H](Cc2ccc(O)cc2)NC(=O)[C@@H]2CSCc3cc(cc(c3)CSC[C@H](N)C(=O)N[C@@H](Cc3ccccc3)C(=O)N[C@@H]([C@@H](C)O)C(=O)NCC(=O)N[C@@H](CCCCN)C(=O)N2)CSC[C@@H](C(N)=O)NC(=O)CNC1=O` — result for “decrease in efficacy”: ~30% (CNR2 (Homo sapiens, UniProt P34972); β-arrestin-2 recruitment; HEK293; concentration not given, with: 2-AG 1 µM).
For `CCCCCCCCCCCCCCCC(=O)N[C@@H](CCC(=O)NCCCC[C@H](NC(=O)[C@H](CO)NC(=O)[C@@H]1CCCN1C(=O)[C@@H]1CCCN1C(=O)[C@@H]1CCCN1C(=O)[C@H](C)NC(=O)CNC(=O)[C@H](CO)NC(=O)[C@H](CO)NC(=O)[C@@H]1CCCN1C(=O)CNC(=O)CNC(=O)[C@H](C)NC(=O)[C@H](CC(C)C)NC(=O)[C@H](CC(C)C)NC(=O)[C@H](Cc1c[nH]c2ccccc12)NC(=O)[C@H](CC(N)=O)NC(=O)[C@@H](NC(=O)[C@H](Cc1ccccc1)NC(=O)[C@H](CCC(=O)O)NC(=O)C(C)(C)NC(=O)[C@H](C)NC(=O)[C@H](C)NC(=O)[C@H](CCC(N)=O)NC(=O)[C@H](CCCCN)NC(=O)[C@H](CC(=O)O)NC(=O)[C@H](CC(C)C)NC(=O)[C@H](Cc1ccc(O)cc1)NC(=O)[C@@H](NC(=O)[C@H](CO)NC(=O)[C@H](Cc1ccc(O)cc1)NC(=O)[C@H](CC(=O)O)NC(=O)[C@H](CO)NC(=O)[C@@H](NC(=O)[C@H](Cc1ccccc1)NC(=O)[C@@H](NC(=O)CNC(=O)[C@H](CCC(=O)O)NC(=O)CSCC(=O)NCCN1C(=O)CSC1=O)[C@@H](C)O)[C@@H](C)O)[C@@H](C)CC)C(C)C)C(N)=O)C(=O)O`, the Emax was 35% (GIPR; cAMP, agonist).
`CC[C@H](C)[C@@H]1NC(=O)[C@H](CCCNC(=N)N)NC(=O)[C@H](CC(=O)O)NC(=O)[C@H]([C@@H](C)CC)NC(=O)[C@H](CCCNC(=N)N)NC(=O)CNC(=O)CNC(=O)[C@H](Cc2ccccc2)NC(=O)[C@@H](NC(=O)[C@H](CO)NC(=O)[C@H](CO)NC(=O)[C@H](CCCNC(=N)N)NC(=O)CN2CCN(CC(=O)O)CCN(CC(=O)O)CCN(CC(=O)O)CC2)CSSC[C@@H](C(N)=O)NC(=O)[C@H](C)NC(=O)CNC1=O` [copper-64 labelled] gave a tracer uptake of 1.85 ± 0.19 %ID/g (Atrial natriuretic peptide receptor 3 (Mus musculus, UniProt P70180); PET/CT; C57BL/6 mice hind limb ischemia, previously ischemic limb; iv, day 7 after surgery).
For `CC[C@H](C)[C@H](N)C(=O)N[C@@H](CC(N)=O)C(=O)N[C@@H](CC(N)=O)C(=O)N[C@H](C(=O)N1C[C@@H](n2cc([C]34[CH]5[CH]6[CH]7[CH]3[Fe]6754389%10[CH]4[CH]3[CH]8[CH]9[CH]4%10)nn2)C[C@H]1C(=O)N[C@@H](Cc1cn(C)c2ccccc12)C(N)=O)[C@@H](C)CC` (stereo partly drawn), the binding stoichiometry was 1.13 (Envelope glycoprotein gp160, gp120 (env, Human immunodeficiency virus type 1 group M subtype B, UniProt P35961, S370A); ITC; concentration not given, gp120 S375A mutant).
With `NS(=O)(=O)c1ccc(NC(=O)c2ccccc2SSc2ccccc2C(=O)Nc2ccc(S(N)(=O)=O)cc2)cc1` the Hill coefficient was 1.47 (Gag-Pol polyprotein, integrase (gag-pol, Human immunodeficiency virus type 1 group M subtype B, UniProt P04585, C1427S); DNA binding, fluorescence anisotropy; full-length integrase; compound:IN ratio 3:1, with: 10 mM Mg2+, U5 DNA).
For `CC[C@H](C)[C@H](NC(=O)[C@H](CCCN)NC(=O)[C@H](CC(=O)O)NC(=O)[C@H](CC(C)C)NC(=O)C(C)(CC(C)C)NC(=O)[C@@H](NC(=O)[C@H](CO)NC(=O)[C@H](Cc1ccc(O)cc1)NC(=O)[C@H](CC(=O)O)NC(=O)[C@H](CO)NC(=O)[C@@H](NC(=O)[C@H](Cc1ccccc1)NC(=O)[C@@H](NC(=O)CNC(=O)[C@H](CCC(=O)O)NC(=O)C(C)(C)NC(=O)[C@@H](N)Cc1ccc(O)cc1)[C@@H](C)O)[C@@H](C)CC)[C@@H](C)CC)C(=O)N[C@@H](Cc1c[nH]cn1)C(=O)N[C@@H](CCC(N)=O)C(=O)NC(C)(C)C(=O)N[C@@H](CC(=O)O)C(=O)N[C@@H](Cc1ccccc1)C(=O)N[C@H](C(=O)N[C@@H](CCC(=O)O)C(=O)N[C@@H](Cc1ccc(O)cc1)C(=O)N[C@@H](CCCCNC(=O)COCCOCCNC(=O)COCCOCCNC(=O)CC[C@H](NC(=O)CCCCCCCCCCCCCCCCCCC(=O)O)C(=O)O)C(=O)N[C@@H](CC(C)C)C(=O)N[C@@H](CCC(=O)O)C(=O)NCC(=O)NCC(=O)N1CCC[C@H]1C(=O)N[C@@H](CO)C(=O)N[C@@H](CO)C(=O)NCC(=O)N[C@@H](C)C(=O)N1CCC[C@H]1C(=O)N1CCC[C@H]1C(=O)N1CCC[C@H]1C(=O)N[C@@H](CO)C(N)=O)C(C)C` (stereo partly drawn), the Emax was 101 ± 3% (GIPR; cAMP accumulation, agonist; HEK293 expressing human GIPR; 0.1% casein, 1.0% HSA; reference: human GIP(1-42)NH2 maximal response).

Repeated from above:
For `CC[C@H](C)[C@H](NC(=O)[C@H](CCCN)NC(=O)[C@H](CC(=O)O)NC(=O)[C@H](CC(C)C)NC(=O)C(C)(CC(C)C)NC(=O)[C@@H](NC(=O)[C@H](CO)NC(=O)[C@H](Cc1ccc(O)cc1)NC(=O)[C@H](CC(=O)O)NC(=O)[C@H](CO)NC(=O)[C@@H](NC(=O)[C@H](Cc1ccccc1)NC(=O)[C@@H](NC(=O)CNC(=O)[C@H](CCC(=O)O)NC(=O)C(C)(C)NC(=O)[C@@H](N)Cc1ccc(O)cc1)[C@@H](C)O)[C@@H](C)CC)[C@@H](C)CC)C(=O)N[C@@H](Cc1c[nH]cn1)C(=O)N[C@@H](CCC(N)=O)C(=O)NC(C)(C)C(=O)N[C@@H](CC(=O)O)C(=O)N[C@@H](Cc1ccccc1)C(=O)N[C@H](C(=O)N[C@@H](CCC(=O)O)C(=O)N[C@@H](Cc1ccc(O)cc1)C(=O)N[C@@H](CCCCNC(=O)COCCOCCNC(=O)COCCOCCNC(=O)CC[C@H](NC(=O)CCCCCCCCCCCCCCCCCCC(=O)O)C(=O)O)C(=O)N[C@@H](CC(C)C)C(=O)N[C@@H](CCC(=O)O)C(=O)NCC(=O)NCC(=O)N1CCC[C@H]1C(=O)N[C@@H](CO)C(=O)N[C@@H](CO)C(=O)NCC(=O)N[C@@H](C)C(=O)N1CCC[C@H]1C(=O)N1CCC[C@H]1C(=O)N1CCC[C@H]1C(=O)N[C@@H](CO)C(N)=O)C(C)C` (stereo partly drawn), the Emax was 101 ± 3% (GIPR; cAMP accumulation, agonist; HEK293 expressing human GIPR; 0.1% casein, 1.0% HSA; reference: human GIP(1-42)NH2 maximal response).
